Measured values collected from several papers.
A part holds a random share of what one study measured.

Series 1
Target: Histone acetyltransferase KAT6A, both winged helices, GST fusion (KAT6A, Homo sapiens, UniProt Q92794, residues 1-181)
Technique: protein binding microarray
Form: double-stranded DNA, one strand shown
Matrix: in vitro
Concentration: not given
Notes: 8-mer, flanks averaged, mean of 2 arrays, mostly near background
Baseline: not given
Direction: higher = stronger binding
Construct (chain): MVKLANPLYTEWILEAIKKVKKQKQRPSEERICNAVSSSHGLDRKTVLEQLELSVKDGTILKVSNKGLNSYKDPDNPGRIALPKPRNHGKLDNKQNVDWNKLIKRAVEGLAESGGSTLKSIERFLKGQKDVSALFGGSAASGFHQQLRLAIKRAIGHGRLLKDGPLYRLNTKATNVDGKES
Sequence | E-score
GATGGCCA | -0.0207
ATCCGCTA | 0.267
CAGCCCAG | -0.152
GTGGAGGA | -0.12
CCTGAGCC | -0.048
ATTGTGGG | -0.209
ACAGTACA | -0.0229
GTTGATTA | -0.00889
ACTTCTAA | -0.0498
CAGTAACG | 0.0691
AACATAGG | -0.0481
GTAGACAA | -0.1
CCCAAACA | -0.302
CGATAGCA | 0.0123
CGCACTTA | 0.132
AGACTGAC | -0.0158
GACTACGC | 0.147
ATTGTAGA | -0.0884
GAGCTGCC | 0.025
ATATACAG | -0.143
GTAGTCGA | 0.0438
TGCGCCAA | 0.148
CCACAATA | -0.209
ACAATGCA | -0.0605
AGAGGATC | -0.214

Series 2
Target: Fragile X messenger ribonucleoprotein 1, C-terminal low-complexity region (Fmr1, Mus musculus, UniProt P35922)
Technique: RNA Bind-n-Seq
Form: RNA
Matrix: in vitro
Concentration: 200 nM
Notes: whole 134-nt RNA, ends assumed
Added: 150 mM LiCl
Baseline: input library
Direction: higher = stronger binding
All molecules: 7-deaza-guanosine replaces G
Sequence | log2 enrichment
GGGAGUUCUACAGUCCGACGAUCUGCAGGGUCUGGGUAGCAGCUGGGCUUCCAGCUUUCUCCUUGCACCUGACUUGGGCUUUUUUCUCCUCACAGGAUGGGCCUUGACGGCAUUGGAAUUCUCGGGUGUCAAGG | -2.38
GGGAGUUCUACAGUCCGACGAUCGCAGGAAGUAAAAACAAAUGGAAAAGCUUCGGAUAGUGGCAGGGGUGGGGGUUGCUAAGGAAAGGGUGGGAUGGGAGUGGGUAAAGAGUUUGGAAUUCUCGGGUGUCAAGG | 1.3
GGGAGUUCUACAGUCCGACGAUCAAGUCCUGUGCUACACAUCGUAUGUACCGAAUCGGGGAAAAGGGGAAAAGGAAAAGGAAAGUAUUAUGUUACGCCGUUCGGAUCUGCACUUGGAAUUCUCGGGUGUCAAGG | 0.102
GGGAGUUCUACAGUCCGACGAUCUACCAAUUGGCCUUUAUUGACUGUAUCCAAAGGAUUUUUUGAAGGCACCAUUGCCAGCAAAGGUAAGUACCUAUUUCUCCCAUAGCACUUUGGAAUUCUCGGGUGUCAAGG | 0.0435
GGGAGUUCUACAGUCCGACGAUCUCAAGUCCUGUGCUACACAUCGUAUGUACCGAAUCGGGUUUGGGUGGGAAAGGGAAAGUAUUAUGUUACGCCGUUCGGAUCUGCACUUCCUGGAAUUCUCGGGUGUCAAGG | -1.87
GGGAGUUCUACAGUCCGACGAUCCAAGUCCUGUGCUACACAUCGUAUGUACCGAAUCGGGUUUGGGGUUUGGGUUUGGAAAGUAUUAUGUUACGCCGUUCGGAUCUGCACUUCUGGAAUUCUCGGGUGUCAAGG | -1.38
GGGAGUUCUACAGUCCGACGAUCUCCGCACACCCGGCCUGUCACCCUGCUUUCCCUGCCUCUACUUGACUUGGAAUUGGCUGAAGACUACACAGGAAUGCAUCGUUCCCACUCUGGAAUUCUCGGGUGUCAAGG | 1.26
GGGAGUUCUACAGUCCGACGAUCAGUCCUGUGCUACACAUCGUAUGUACCGAAUCAAACCCCCAAAUUUAAACCCCCAAAAAAGUAUUAUGUUACGCCGUUCGGAUCUGCACUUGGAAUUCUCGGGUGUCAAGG | 1.03

Series 3
Target: Sal-like protein 4, full length isoform B (SALL4, Homo sapiens, UniProt Q9UJQ4-2, residues 1-616)
Technique: universal PBM
Form: double-stranded DNA, one strand shown
Matrix: in vitro
Concentration: not given
Notes: 8-mer, flanks averaged, mean of replicates
Direction: higher = stronger binding
Sequence | E-score
GGGCCGAC | -0.326
GGCGCGTA | -0.184
AAGTACTC | 0.0381
TACCAATA | 0.279
AGAGAGAT | 0.0248
AAACAAGG | -0.0786
TATGTCAA | 0.358
CGACTTAG | -0.0782
AAAATGTG | 0.16
AACGTGCT | -0.0753
AGTATGGC | -0.143
CACCGGCA | -0.266
CAAAAACG | -0.0081
ACTGGGGA | -0.239
GTTCGGAA | -0.083
CACAAAGA | 0.0643
ACTAAAGT | 0.0559
CAGCTAAA | -0.00334
CACAATCC | 0.00391
GTTTGTTA | 0.213
CCGACCTC | -0.227
GAGACTAA | 0.167
GCAGTGGA | -0.0115
CATCTTAA | 0.127
ACACCCGG | -0.317

Series 4
Target: Prothrombin, mature alpha-thrombin (F2, Homo sapiens, UniProt P00734)
Technique: aptamer microarray, sandwich
Form: DNA with 2'F-ANA
Matrix: in vitro
Concentration: 200 nM
Notes: whole 15-mer aptamer, many near background
Added: Cy3 exosite-II aptamer, 400 nM
Direction: higher = stronger binding
Sequence: GGTTGGTGTGGTTGG
Modification | mean fluorescence intensity
2'F-ANA at 1 3 5 6 8 14 | 42.3 a.u.
2'F-ANA at 2 3 4 5 6 11 13 14 15 | 71.3 a.u.
2'F-ANA at 2 4 6 7 8 10 12 15 | 125 a.u.
2'F-ANA at 4 7 8 10 11 12 13 15 | 96.7 a.u.
2'F-ANA at 3 5 6 11 14 | 48.1 a.u.
2'F-ANA at 3 6 9 12 14 15 | 607 a.u.
2'F-ANA at 4 5 7 8 9 10 11 12 14 | 45.9 a.u.
2'F-ANA at 2 3 6 8 10 11 12 13 14 | 264 a.u.
2'F-ANA at 3 6 7 9 11 15 | 707 a.u.
2'F-ANA at 1 4 12 14 15 | 62.1 a.u.
2'F-ANA at 1 3 4 5 6 7 9 12 13 14 | 48.5 a.u.
2'F-ANA at 1 2 9 10 13 14 | 45.2 a.u.
2'F-ANA at 1 3 4 5 7 8 10 11 14 15 | 44.3 a.u.
2'F-ANA at 1 2 6 8 11 14 | 57.7 a.u.
2'F-ANA at 2 3 4 5 6 9 10 11 12 | 57.4 a.u.
2'F-ANA at 3 4 7 9 13 14 15 | 265 a.u.
2'F-ANA at 1 2 3 5 6 7 9 10 12 13 14 15 | 48.5 a.u.
2'F-ANA at 3 7 8 9 13 | 1050 a.u.
2'F-ANA at 5 6 7 8 9 12 13 | 122 a.u.
2'F-ANA at 12 14 15 | 290 a.u.
2'F-ANA at 1 5 7 8 9 13 15 | 53.3 a.u.
2'F-ANA at 1 2 3 4 5 6 7 8 10 11 12 15 | 99.1 a.u.
